Experimental data pooled from the literature.
Parts stem from different laboratories: compare values within a part only. Changes are numbered by the printed parent chain.

Study 1
Target: TAR DNA-binding protein 43, full length, His tag (TARDBP, Homo sapiens, UniProt Q13148, residues 1-414)
Method: RNA Bind-n-Seq
Molecule type: RNA
Medium: in vitro
Concentration: 20 nM
Setting: 6-mer, flanks averaged, single round
Together with: 150 mM LiCl
Baseline: input library
Direction: higher = stronger binding
`UACUUC` — result for “6-mer enrichment (R)”: 0.845.
For `UCAGAC`, “6-mer enrichment (R)” read 0.797.
`GUAGAA`: “6-mer enrichment (R)” 1.16.
Under “6-mer enrichment (R)”, `GACAAU` is recorded as 0.868.
For `UAGAGA`, “6-mer enrichment (R)” read 0.946.
`CCGGCU` — result for “6-mer enrichment (R)”: 0.905.
`AGUUCG`: “6-mer enrichment (R)” 0.901.
Under “6-mer enrichment (R)”, `CGUAAA` is recorded as 0.828.
`AGCUGA` — result for “6-mer enrichment (R)”: 0.864.
Under “6-mer enrichment (R)”, `AUUACC` is recorded as 0.917.

Study 2
Target: NFE2, bZIP domain (human)
Method: DHFR protein complementation
Medium: yeast
Setting: single substitutions, most at no-binding floor
Baseline: wild-type JUN-FOS pair
Direction: higher = stronger binding
Parent: JUN, bZIP domain (human); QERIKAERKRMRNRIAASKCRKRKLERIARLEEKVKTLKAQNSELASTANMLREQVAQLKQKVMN; partner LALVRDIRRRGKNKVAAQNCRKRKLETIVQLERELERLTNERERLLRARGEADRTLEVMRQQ
`L31P` has a binding fitness of -1.41 natural log.
The binding fitness of `K39P` is reported as -1.36 natural log.
The binding fitness of `V35K` is reported as -1.52 natural log.
`E44G` gave a binding fitness of -1.34 natural log.
With `Q55V` the binding fitness was -1.48 natural log.
`T48Q` has a binding fitness of -1.45 natural log.
For `S47G`, the binding fitness was -1.37 natural log.
`L38C` gave a binding fitness of -1.41 natural log.
`L52E` gave a binding fitness of -1.29 natural log.
`N42A` has a binding fitness of -1.25 natural log.
With `E33C` the binding fitness was -1.5 natural log.
`A46F` gave a binding fitness of -1.53 natural log.
`I28R` gave a binding fitness of -1.31 natural log.
With `K36P` the binding fitness was -1.41 natural log.
For `S43I`, the binding fitness was -1.46 natural log.
With `A29P` the binding fitness was -1.5 natural log.
The binding fitness of `K34Y` is reported as -1.48 natural log.
The binding fitness of `N42Y` is reported as -1.51 natural log.
The binding fitness of `R30G` is reported as -1.43 natural log.
`L31Q` gave a binding fitness of -1.64 natural log.
`E32I` has a binding fitness of -1.41 natural log.
With `E33R` the binding fitness was -1.52 natural log.
For `S47I`, the binding fitness was -1.39 natural log.
`Q41R` gave a binding fitness of -1.45 natural log.
The binding fitness of `I28A` is reported as -1.54 natural log.

Study 3
Target: CCNB2, cyclin fold, Cln2 fusion (human)
Method: yeast growth competition, sequencing
Medium: yeast
Setting: weak parent motif
Baseline: not given
Direction: higher = stronger binding
Parent: NPAT docking peptide (human); PCHRRVLCFDSTT; partner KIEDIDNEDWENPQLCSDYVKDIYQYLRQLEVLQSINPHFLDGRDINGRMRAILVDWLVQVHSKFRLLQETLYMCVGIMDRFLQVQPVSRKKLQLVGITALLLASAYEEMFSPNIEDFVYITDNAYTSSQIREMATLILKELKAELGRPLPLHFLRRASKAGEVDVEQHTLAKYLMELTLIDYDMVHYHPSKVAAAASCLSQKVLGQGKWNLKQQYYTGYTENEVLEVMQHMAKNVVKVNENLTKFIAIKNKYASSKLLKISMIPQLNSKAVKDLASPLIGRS
`F9A` — result for “normalised enrichment score”: 0.204.
`V6A` — result for “normalised enrichment score”: 0.409.
For `R5K F9L`, “normalised enrichment score” read 0.368.
For `T13A`, “normalised enrichment score” read -0.0627.
`T12A`: “normalised enrichment score” 0.0701.
`S11A`: “normalised enrichment score” 0.323.
`R5A L7A`: “normalised enrichment score” -0.207.
`D10A` — result for “normalised enrichment score”: 0.873.
For `R5K`, “normalised enrichment score” read 0.418.
`R4A`: “normalised enrichment score” 0.214.

Study 4
Target: RNA binding protein fox-1 homolog 2, RRM domain, GST-SBP tag (RBFOX2, Homo sapiens, UniProt O43251-10, residues 100-194)
Method: RNA Bind-n-Seq
Molecule type: RNA
Medium: in vitro
Concentration: 365 nM
Setting: natural RNA segment, single round, ends assumed
Baseline: no-protein control
Direction: higher = stronger binding
Constant ends, left off below: GGGAGUUCUACAGUCCGACGAUC … UGGAAUUCUCGGGUGCCAA
Construct (chain): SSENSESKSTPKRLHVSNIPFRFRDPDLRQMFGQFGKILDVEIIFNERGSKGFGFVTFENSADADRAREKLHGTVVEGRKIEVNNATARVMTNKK
`CUGAAAAUAGAGUAUUUUUUUAAAGUAAGGCUGUCUUGGUUUAAAAGCAGAUUACAGAAAUGUAAGUCAACUUAAGAACGGUGAAUGAAUGUAAAAACAUUCAGUUGAGA` — result for “RBNS enrichment (R)”: 0.356.
Under “RBNS enrichment (R)”, `AUUUUAAGUCUCUGUACUUGGCUACACACAGAUUGUAUUUUUAUUGUUAAUGCUCUUCUUAUGGAUACCUGCAUUUAACUUGUGGACUAUGUAAACACAAUAUCUAUCAA` is recorded as 0.635.
Under “RBNS enrichment (R)”, `GUCCUCCACCAGUUCUCCAUGCGCACCUCUGCAUGUCCGGCACUAGAAUCCCUGAACACUACUUCACACCUCCCCCACUGCCAGUUGGUUGAUGCUCUAGAGCCACUCUU` is recorded as 9.4.
Under “RBNS enrichment (R)”, `GAGGGAAGGGAUUUUGAGUCACAUUAGCCUCAGGUUAGUGUUUGGCUCCAGUAAUAUCUUGCCCGAAAAGUGGUCGUCUUCCAAGCAUGGUGUUCUGGGUCCCAGCCUUG` is recorded as 0.645.
Under “RBNS enrichment (R)”, `GAGCUCUAGGUGUUUAGGCAGCGUGUGGUGUCUGAGAGGCCAUAGCGCCAUCAUGGGCUGAUUUUUAUUACCAGGUCCCCCAGAAGCAGGUGGGAGGCUCUGCUUCCUGC` is recorded as 0.172.
For `CUACAUGGACAAGCUGUUUUCUUUUCUAGGUUACUGAUAACCCCUACAAUUUUCGACUUAACUUCAAAACACAGUAUUGUGUUAUCUAUCACAUAACAGGACCAUGUUUU`, “RBNS enrichment (R)” read 0.433.
`GAUUUCAGUAGCACAAGUUAUUUAAAUCUGUUUUUCUAACUGGGGGAAAAGAUUCCCACCCAAUUCAAAACAUUGUGCCAUGUCAAACAAAUAGUCUAUCAACCCCAGAC` — result for “RBNS enrichment (R)”: 0.553.
Under “RBNS enrichment (R)”, `UUCUGGGGGCUACCAAAACACCCCUUCUGGAGUAGAAGCUGCUGGAAGGCAGGCCUGAGCCAUUCACCACGGACAGGAAGAGCAGCUCUGGCUAUCACCACUGGCCUCUG` is recorded as 0.168.
`CUUUUUUUAAAAAAGAGAGAAAAGAAAAACUAGUUGGUGGACAUGGUGGGUGACACGCCUUUAAUCUCAGCACUUGGGAGGAAGAGGCAGGUGAAUCUCUGGGUUAGGAC`: “RBNS enrichment (R)” 0.607.
`GCAAAUUAAUUGAGAAUGUAUGAAAGUCAUGAAUGUACAAGCCAAAUAAAGCUCUUUAUUAACCCUGAUGUAUCGUGCUCUUGUAUUCUUUGUUGAAGGGAUGAAGCCAA`: “RBNS enrichment (R)” 1.25.
Under “RBNS enrichment (R)”, `AACACAAUCAGGUGUGGAUUGGUGCUACUUUGAACAAAAGGUCCCCCUGUGGUCUUUUGUUCAACAUUGUACAAUGUAGAACUCUGUCCAACACUAAUUUAUUUUGUCUU` is recorded as 0.277.
`ACUCAUUAAUACCUUGCUCUGCAGUUAUUUUCUAGCAGUCUAUAUAGUAGUUUCACAUCUGUAUUAUUUCCAAGUUUAAACUGUAAGCUCCUUGAGGGCAGGGAUUAUAA`: “RBNS enrichment (R)” 0.468.

Study 5
Target: ABI1, truncated, D143A, DHFR fusion (Arabidopsis thaliana)
Method: DHFR PCA, deep sequencing
Medium: yeast
Setting: methotrexate growth selection, single substitutions
Together with: (+)-ABA 0.032 µM
Baseline: wild-type fitted maximum
Direction: higher = stronger binding
Parent: PYL1, truncated, DHFR fusion (Arabidopsis thaliana); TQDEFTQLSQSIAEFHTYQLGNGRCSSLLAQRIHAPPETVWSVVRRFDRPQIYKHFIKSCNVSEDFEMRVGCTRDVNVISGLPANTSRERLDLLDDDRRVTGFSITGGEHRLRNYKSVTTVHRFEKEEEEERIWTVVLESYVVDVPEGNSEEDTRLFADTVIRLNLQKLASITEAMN
For `K168H`, “relative binding score” read 24.3%.
`T154S`: “relative binding score” -5.19%.
For `V121H`, “relative binding score” read -13.3%.
For `N177A`, “relative binding score” read 39.9%.
`Q167H`: “relative binding score” 7.27%.
Under “relative binding score”, `V78Q` is recorded as -0.741%.
For `Q31C`, “relative binding score” read 0.952%.
`V121I`: “relative binding score” 4.34%.
Under “relative binding score”, `M176E` is recorded as 4.27%.
`H55Y` — result for “relative binding score”: 12%.
`F56K` — result for “relative binding score”: -4.06%.
Under “relative binding score”, `R32T` is recorded as 37.2%.
Under “relative binding score”, `G23D` is recorded as 5.82%.
`Q7L`: “relative binding score” 19%.
`L166M`: “relative binding score” 2.09%.
Under “relative binding score”, `L82E` is recorded as -2.08%.

Study 6
Target: Centromere-binding protein 1, full length, N-terminal tag (CBF1, Saccharomyces cerevisiae, UniProt P17106, residues 1-351)
Chain of UniProt P17106 (whole entry, looked up): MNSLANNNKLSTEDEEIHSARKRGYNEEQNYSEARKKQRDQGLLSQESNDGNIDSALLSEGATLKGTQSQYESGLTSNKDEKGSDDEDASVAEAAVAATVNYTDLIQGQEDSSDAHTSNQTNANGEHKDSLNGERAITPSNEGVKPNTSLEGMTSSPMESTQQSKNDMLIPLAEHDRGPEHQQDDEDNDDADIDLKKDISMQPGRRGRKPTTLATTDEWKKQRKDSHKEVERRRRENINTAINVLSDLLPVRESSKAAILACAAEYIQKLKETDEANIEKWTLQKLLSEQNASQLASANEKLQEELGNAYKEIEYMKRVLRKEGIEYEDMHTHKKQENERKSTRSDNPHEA
Method: protein-binding microarray
Molecule type: double-stranded DNA, one strand shown
Medium: in vitro
Concentration: 0.8 µM
Setting: whole 60-bp probe, no competitor
Direction: higher = stronger binding
Constant ends, left off below: … GTCTTGATTCGCTTGACGCTGCTG
`TGTACGAAGCTATATCAGACATATATAGTAGTTAGG` gave a fluorescence intensity of 506 a.u.
For `CTAAATCACTCCCCCCACGTTTTTTTATCCAGTTTC`, the fluorescence intensity was 601 a.u.
The fluorescence intensity of `CTAGGTGAGCAAACGCATGTGGAAATGAACAACTTC` is reported as 520 a.u.
`CTATAGAGTTTCATTCACATGAATAATCTGTTATTC` gave a fluorescence intensity of 576 a.u.
With `CTAGCGTTATATTTACATGTGGTATATCCGGATTTC` the fluorescence intensity was 637 a.u.
`TGTACGAAGCTATAGCACGGGCGTATAGTAGTTAGG` gave a fluorescence intensity of 576 a.u.
The fluorescence intensity of `CCTAACTACTATAGTCACACCATATAGCTTCGTACA` is reported as 633 a.u.
`GAATCATACTAGTCACACGTTGCTCGAGAACAGTAG` has a fluorescence intensity of 765 a.u.
With `CTACGGAATAGGCGCCACGTTTCCGTGGGTGACTTC` the fluorescence intensity was 616 a.u.
The fluorescence intensity of `CTATCTTTCCACAAACGCACCACGTTGAGAGTGTTC` is reported as 581 a.u.
The fluorescence intensity of `GAATTTGGATAATTTCACGAGGGGAAATGGACATAG` is reported as 602 a.u.
`TGTACGAAGCTATATCACAAGGATATAGTAGTTAGG` has a fluorescence intensity of 554 a.u.
For `CTATTGTGCGATCATCACCAAGATAACAAGAGATTC`, the fluorescence intensity was 537 a.u.
`GAACATCATCATTTAATCATGATGATAATATTGTAG` has a fluorescence intensity of 561 a.u.
The fluorescence intensity of `GAATGATATTACTCAAATGTGTCACAATTTCAATAG` is reported as 566 a.u.
The fluorescence intensity of `CTAAAGCGCAAACAGGGCATGATGCAGTTGAATTTC` is reported as 493 a.u.
`GAACATTACTATTTTCATCAGGGCCAACAAAAATAG` has a fluorescence intensity of 546 a.u.
With `GAAGCCAAGTTTTGGAACGTGGTATAATAGGCTTAG` the fluorescence intensity was 552 a.u.
`GAATACAATATTCCTGATGTAATAATACCAATCTAG` has a fluorescence intensity of 532 a.u.
With `CTAGATTCGCAGGATGTCACGGTAACCAAAGTGTTC` the fluorescence intensity was 669 a.u.
With `GAACGACTCCCAACACACGTTTAATGTTGTACGTAG` the fluorescence intensity was 545 a.u.
The fluorescence intensity of `CTATTTTCTATAAGTAACATCAGCCCATCACCCTTC` is reported as 615 a.u.
The fluorescence intensity of `GAATTGTCATACTGACGTGTACCACTCTGAGAATAG` is reported as 574 a.u.
`GAATATGAGCCTGATAACGTGAGTCATTCGTTTTAG` has a fluorescence intensity of 767 a.u.
`CTAATAACAGGACACTACATCAGAGATAATCTTTTC` has a fluorescence intensity of 485 a.u.

Excerpt of the above (study 6):
`TGTACGAAGCTATATCAGACATATATAGTAGTTAGG` gave a fluorescence intensity of 506 a.u.
For `CTAAATCACTCCCCCCACGTTTTTTTATCCAGTTTC`, the fluorescence intensity was 601 a.u.
The fluorescence intensity of `CTAGGTGAGCAAACGCATGTGGAAATGAACAACTTC` is reported as 520 a.u.
`CTATAGAGTTTCATTCACATGAATAATCTGTTATTC` gave a fluorescence intensity of 576 a.u.
With `CTAGCGTTATATTTACATGTGGTATATCCGGATTTC` the fluorescence intensity was 637 a.u.
